Assay results gathered from unrelated publications.
Every numbered part comes from another study and shows a few of its results, in no order. Positions count from the first letter of the parent shown.

Set 1
Target: ABI1, truncated, D143A, DHFR fusion (Arabidopsis thaliana)
Technique: DHFR PCA, deep sequencing
Medium: yeast
Setting: methotrexate growth selection, single substitutions
Added: (+)-ABA 0.0091 µM
Reference: wild-type fitted maximum
Reading: higher = stronger binding
Starting sequence: PYL1, truncated, DHFR fusion (Arabidopsis thaliana); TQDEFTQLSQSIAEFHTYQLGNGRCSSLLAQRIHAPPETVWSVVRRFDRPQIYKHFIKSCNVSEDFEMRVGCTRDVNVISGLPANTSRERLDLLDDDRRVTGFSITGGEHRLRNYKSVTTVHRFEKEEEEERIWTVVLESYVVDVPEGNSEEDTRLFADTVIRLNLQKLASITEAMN
Variant | relative binding score [%]
V137K | 3.9
V62R | -0.124
S26F | 1.44
A35D | 0.783
P146V | 30.4
T39G | -0.0121

Set 2
Target: CCNB2, cyclin fold, Cln2 fusion (human)
Technique: yeast growth competition, sequencing
Medium: yeast
Setting: weak parent motif
Reference: not given
Reading: higher = stronger binding
Starting sequence: WEE2 docking peptide (human); KELRQKLNFSYCE; partner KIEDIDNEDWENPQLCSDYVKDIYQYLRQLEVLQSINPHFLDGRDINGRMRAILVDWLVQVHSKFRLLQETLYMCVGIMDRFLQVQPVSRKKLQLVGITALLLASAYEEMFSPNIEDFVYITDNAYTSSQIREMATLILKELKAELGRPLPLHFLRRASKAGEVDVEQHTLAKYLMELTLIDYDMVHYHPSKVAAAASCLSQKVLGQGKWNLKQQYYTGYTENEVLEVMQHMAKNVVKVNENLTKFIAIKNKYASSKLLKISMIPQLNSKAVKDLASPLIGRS
Variant | normalised enrichment score
S10A | 0.509
N8A | 0.816
K1A | 0.533
K6A | 0.41
F9A | 0.149
Y11A | 0.909

Set 3
Target: Sal-like protein 4, full length isoform A (SALL4, Homo sapiens, UniProt Q9UJQ4, residues 1-1053)
Sequence of UniProt Q9UJQ4 (whole entry, looked up): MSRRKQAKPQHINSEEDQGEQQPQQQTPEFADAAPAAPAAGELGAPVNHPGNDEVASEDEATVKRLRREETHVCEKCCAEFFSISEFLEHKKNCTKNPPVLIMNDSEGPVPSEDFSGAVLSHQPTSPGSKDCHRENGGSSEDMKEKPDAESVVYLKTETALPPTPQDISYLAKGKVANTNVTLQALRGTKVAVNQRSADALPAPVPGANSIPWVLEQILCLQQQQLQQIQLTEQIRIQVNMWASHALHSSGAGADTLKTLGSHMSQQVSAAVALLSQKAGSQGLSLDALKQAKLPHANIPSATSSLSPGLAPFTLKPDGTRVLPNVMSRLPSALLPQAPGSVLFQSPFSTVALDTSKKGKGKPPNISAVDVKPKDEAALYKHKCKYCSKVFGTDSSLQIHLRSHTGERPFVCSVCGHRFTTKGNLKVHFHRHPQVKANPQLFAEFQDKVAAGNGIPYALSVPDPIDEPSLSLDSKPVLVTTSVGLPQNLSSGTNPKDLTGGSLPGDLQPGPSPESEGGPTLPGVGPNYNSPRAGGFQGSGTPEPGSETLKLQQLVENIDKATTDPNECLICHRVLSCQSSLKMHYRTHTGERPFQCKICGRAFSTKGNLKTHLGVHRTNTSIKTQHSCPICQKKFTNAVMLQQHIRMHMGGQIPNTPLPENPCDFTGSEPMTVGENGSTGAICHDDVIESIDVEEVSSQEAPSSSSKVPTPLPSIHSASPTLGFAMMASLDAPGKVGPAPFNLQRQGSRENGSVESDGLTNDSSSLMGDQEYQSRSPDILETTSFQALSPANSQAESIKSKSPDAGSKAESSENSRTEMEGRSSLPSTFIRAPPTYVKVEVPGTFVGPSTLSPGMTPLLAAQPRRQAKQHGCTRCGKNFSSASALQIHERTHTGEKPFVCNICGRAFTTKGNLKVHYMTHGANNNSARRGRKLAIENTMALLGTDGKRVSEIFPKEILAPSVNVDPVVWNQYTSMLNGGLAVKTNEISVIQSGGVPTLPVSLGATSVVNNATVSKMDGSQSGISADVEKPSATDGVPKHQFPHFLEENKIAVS
Technique: universal PBM
Molecule type: double-stranded DNA, one strand shown
Medium: in vitro
Concentration: 600 nM
Setting: 8-mer, flanks averaged, mean of replicates
Reading: higher = stronger binding
Sequence | E-score
AGGGTCAC | -0.321
AGAATGAA | 0.26
GTACGATA | 0.293
GACAGTTA | 0.0863
GCCGGCAA | -0.133
CAAAACGC | -0.0401
AGGTATAA | 0.243
CCCCCCAG | -0.408
CTGCCAAC | -0.0704

Other studies, line by line
Molecule | target | test | test system | setting | scale | quantity | result
PhoQ, residues 284 288 289 292 302 303 TAVSDG | PhoP, residues 12 14 15 18 19 NFCKL (Escherichia coli, UniProt P23836) | Sort-seq, item: YFP reporter | E. coli | PhoQ-PhoP variant library, added: 10 µM Mg2+ | reference: high Mg2+ state, higher = stronger signaling | fold induction | 0.905

Some of these lines once more (set 1):
Variant | relative binding score [%]
V137K | 3.9
V62R | -0.124
